Measured values pooled from the literature.
Compare with care: the assays were run in different laboratories. Several values in a cell are separate wells, animals, samples, runs or records. Numbers after ± are the reported error. ≈ marks a conversion by molar mass, not a printed value.
UniProt O43293, sequence (whole entry, looked up): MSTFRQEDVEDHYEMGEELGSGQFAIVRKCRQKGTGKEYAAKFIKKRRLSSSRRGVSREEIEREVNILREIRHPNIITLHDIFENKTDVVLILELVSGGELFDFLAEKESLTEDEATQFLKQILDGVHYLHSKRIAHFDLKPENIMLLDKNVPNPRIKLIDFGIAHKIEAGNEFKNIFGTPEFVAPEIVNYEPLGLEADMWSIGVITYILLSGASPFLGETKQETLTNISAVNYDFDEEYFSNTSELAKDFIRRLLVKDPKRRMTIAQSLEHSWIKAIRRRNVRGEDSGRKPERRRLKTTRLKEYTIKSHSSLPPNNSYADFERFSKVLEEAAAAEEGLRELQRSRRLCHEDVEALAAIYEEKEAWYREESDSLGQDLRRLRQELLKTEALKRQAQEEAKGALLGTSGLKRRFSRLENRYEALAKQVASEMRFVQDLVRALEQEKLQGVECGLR

SMILES | tested on | test | system | conditions | scale | quantity | value
O=C(Nc1cnccc1-c1ccc([18F])cc1)c1ccnc(NC(=O)C2CC2)c1 | – | ex vivo gamma counting | GSK-3β transgenic mice, late-stage, lung | intravenous, 120 min, with: tariquidar 15 mg/kg iv | – | mean SUV | 0.63
CN(C)C(=O)CNC(=O)c1ccc([C@H]2[C@@H](F)[C@@H](F)C[C@@H](F)[C@H]2F)cc1 | – | hepatocyte stability | cryopreserved rat hepatocytes | 1 µM | – | hepatic clearance | 10 mL/min/kg
CCCC[C@H](NC(=O)CNC(=O)CNC(=O)[C@H](CCCCNC(=O)[C@H](CC(=O)O)NC(=O)C(C)c1ccc(CC(C)C)cc1)NC(=O)CN1CCN(CC(=O)O)CCN(CC(=O)O)CCN(CC(=O)O)CC1)C(=O)N[C@H]1CC(=O)NCCCC[C@@H](C(N)=O)NC(=O)[C@H](Cc2c[nH]c3ccccc23)NC(=O)[C@H](CCCNC(=N)N)NC(=O)[C@@H](Cc2ccccc2)NC(=O)[C@H](Cc2c[nH]cn2)NC1=O (stereo partly drawn) [lutetium-177 labelled] | – | – | C57 mouse, urine | intravenous, dose not given, 2 h, 177Lu-labelled, receptor blockade, with: unlabelled NDP-MSH 10 µg co-injected | – | urinary excretion | 80 ± 2.02%
CN1CCN(c2ccc3[nH]c(-c4ccc5[nH]c(-c6ccc(OCCCCNC(=O)c7cccc8c7C(=O)OC87c8ccc(N(C)C)cc8[Si](C)(C)c8cc(N(C)C)ccc87)cc6)nc5c4)nc3c2)CC1 | – | – | PBS with 0.1% SDS | – | – | fluorescence quantum yield | 0.59 ± 0.01
C/C(N)=N/C(=N\S(=O)(=O)c1ccc(C(F)(F)F)cc1)N1C[C@H](c2ccccc2)C(c2ccc(Cl)cc2)=N1 | – | – | monkey | – | baseline: in vivo over in vitro CLint | empirical scaling factor | 45
COc1ccc(CN2CCC(F)(F)C(COc3ccc(F)c(F)c3)C2)cc1F (stereo not drawn) | – | equilibrium dialysis | mouse plasma | – | – | fu | 0.048
CCCc1cc2cc(-n3nc(C(F)F)c4c3CC(C)(C)CC4=O)cc(N3CCC(O)CC3)c2c(=O)[nH]1 | – | shake flask | – | 24 h, pH 6.8, room temperature | – | aqueous solubility | 1.08 µM (≈ 0.538 µg/mL)
COC(=O)[C@@]1(C)C=C(C(=O)Nc2cccc(C(=O)Nc3ccc(Nc4nccc(-c5cccnc5)n4)c(C)c3)c2)C(=O)CC1 | – | – | Wistar rat male, blood plasma | 1 µM, 30 min | – | compound remaining | 43.2%
CCC(CC)n1c(Cc2ccco2)nc2cc(C(=O)N[C@@H](CC(=O)O)c3ccccc3)ccc21 | – | – | male Sprague-Dawley rat, plasma | intravenous, 1 mg/kg | – | MRT(0-inf) | 1.51 h
COc1cccc(OC)c1-c1cc(C(=O)NC2(C(=O)O)C3CC4CC(C3)CC2C4)nn1-c1ccc(C(=O)NCCNC(=O)[C@H](CCCCNC(=O)[C@H](CC(C)C)NC(=O)C2OC2C(=O)O)NC(=O)CN2CCN(CC(=O)[O-])CCN(CC(=O)[O-])CCN(CC(=O)[O-])CC2)cc1C(C)C.[177Lu+3] (mixture of isomers) | – | – | mouse, HT-29 xenograft, spleen | 168 h post injection | – | tissue uptake | 0.9 %ID/g
CCNC(=S)NN=Cc1c2ccccc2cc2ccccc12.Cc1ccc(C(C)C)cc1.[Cl][Ru+] | – | UV-Vis spectrophotometry | – | 298 K, 50 mM NaCl | – | aquation rate constant | 0.0012 ± 0.0002 s⁻¹
C=C(NC(=O)c1csc(-c2nc3c(cc2O)-c2nc(cs2)C(=O)NC(C(C)O)C(=O)NC(=C(C)OC)c2nc(cs2)C(=O)NC2c4nc(cs4)C(=O)NC(COC(=O)c4c5c6c(cccc6n4O)COC(=O)C(OC4CC(C)(O)C(N(C)C)C(C)O4)C2OC5)c2nc-3cs2)n1)C(N)=O (stereo not drawn) | – | – | ICR mice, Streptococcus pneumoniae ATCC 49169 infected, immunocompromised, blood | intravenous, 16 mg/kg/day once daily | – | MRT(0-t) | 4.56 h
CC(C)=CCC1=C([O-])C(=O)c2ccccc2C1=O.CC(C)=CCC1=C([O-])C(=O)c2ccccc2C1=O.O.[Cu+2].c1ccc(-c2ccccn2)nc1 | – | cyclic voltammetry | CH2Cl2, Bu4NPF6 | 0.1 mM | baseline: Ag/AgCl sat. KOH | Epc2 cathodic peak potential | 0.04 V
COc1cccc(OC)c1-c1cc(C(=O)NC2(C(=O)O)C3CC4CC(C3)CC2C4)nn1-c1ccc(C(=O)N(C)CCOCCN(C)C(=O)[C@H](CCCCNC(=O)[C@H](CC(C)C)NC(=O)C2OC2C(=O)O)NC(=O)CN2CCN(CC(=O)[O-])CCN(CC(=O)[O-])CCN(CC(=O)[O-])CC2)cc1C(C)C.[177Lu+3] (mixture of isomers) | – | – | mouse, HT-29 xenograft | 24 h post injection, biodistribution | baseline: tumour over bone uptake | tumour-to-bone ratio | 6.71
Cc1nn(-c2cccc(N)c2)c(=O)c2cnc(Nc3ccc(N4CCNCC4)cc3)nc12 | Death-associated protein kinase 3 (DAPK3, Homo sapiens, UniProt O43293) | SelectScreen kinase | – | – | – | IC50 | > 10 µM
O=C(c1ccc(C2CCCCC2)cc1)N1CCC(F)CC1 | – | hepatocyte stability | cryopreserved mouse hepatocytes | 1 µM | – | hepatic clearance | 78 mL/min/kg
CC(C)OC(=O)[C@H](CO)NCc1cc(Cl)c(OCc2cccc(-c3ccccc3)c2Br)cc1OCc1cccnc1 | – | – | hPD-L1 MC-38 tumour, humanised hPD-1 C57BL/6 mouse | oral, 10 mg/kg × 21, day 1, baseline | – | body weight | 19.7 ± 1 g
CCN(CC)c1ccc2c(c1)O[B-]1(c3ccccc3)OC(=O)C(c3ccccc3)=N[N+]1=C2C(C)C (stereo not drawn) | – | – | toluene | – | – | fluorescence emission maximum | 514 nm
C=C1C[C@]2(C(=O)OC)C=C(C(=O)Nc3cccc(C(=O)Nc4ccc(Nc5nccc(-c6cccnc6)n5)c(C)c4)c3)C(=O)[C@H]1C2 | – | – | Wistar rat, male, plasma | 10 µM, 15 min | – | compound remaining | 3.33% and 8.27%
CC(C)C[C@H](NC(=O)[C@H](CCCN)NC(=O)CNC(=O)[C@@H](NC(=O)[C@H](C)NC(=O)[C@@H]1CSCSC[C@H](NC(=O)CC[C@H](N)C(=O)O)C(=O)N[C@@H](CC(N)=O)C(=O)N[C@@H]([C@@H](C)O)C(=O)N[C@@H](C)C(=O)N[C@@H]([C@@H](C)O)C(=O)N1)[C@@H](C)O)C(=O)N[C@@H](C)C(=O)N[C@@H](CCC(=O)O)C(=O)N[C@@](C)(Cc1ccccc1)C(=O)N[C@@H](CC(C)C)C(=O)N[C@H](C(=O)N[C@@H](CCCNC(=N)N)C(=O)N[C@@H](CO)C(=O)N[C@@H](CO)C(=O)N[C@@H](CC(N)=O)C(=O)N(C)[C@@H](CC(N)=O)C(=O)N[C@@H](Cc1ccccc1)C(=O)NCC(=O)N1CCC[C@H]1C(=O)N[C@@H](CCCCNC(=O)CC[C@H](NC(=O)CC[C@H](NC(=O)CCCCCCCCCCCCCCCCCCC(=O)O)C(=O)O)C(=O)O)C(=O)N[C@@H](CC(C)C)C(=O)N1CCC[C@H]1C(=O)N1CCC[C@H]1C(=O)N[C@H](C(=O)N[C@@H](CCC(=O)O)C(=O)N[C@H](C(=O)NCC(=O)N[C@@H](CO)C(=O)N[C@@H](CC(N)=O)C(=O)N[C@H](C(=O)N[C@@H](Cc1ccc(O)cc1)C(N)=O)[C@@H](C)O)C(C)C)[C@@H](C)O)C(C)C | – | – | healthy humans, plasma | subcutaneous, dose not given | – | AUC(0-inf) | 62900 ng·h/mL

SMILES | tested on | test | system | conditions | scale | quantity | value
CC(C)OCCOCc1ccc(OCC(O)CN(N=O)C(C)C)cc1 (stereo not drawn) | – | mutation spectrum, duplex sequencing | NMRI mouse, liver | concentration not given | – | T>C mutation fraction | increased
O=C(N1CCCCC1)C12CC(c3ccccc3)(C1)C2(Br)Br | – | – | pooled human liver microsomes | 2 µM, pH 7.4 | – | elimination rate constant | 0.000967 s⁻¹
CC(=O)Nc1ccc([C@H]2[C@@H](F)[C@@H](F)C[C@@H](F)[C@H]2F)cc1 | – | hepatocyte stability | cryopreserved mouse hepatocytes | 1 µM | – | hepatic clearance | 78 mL/min/kg
CC(C)(O)c1ncc([S@](N)(=O)=NC(=O)Nc2c3c(cc4c2CCC4)CCC3)s1 | – | measured: skin, subcutaneous tissue disorders | healthy human | oral, 100 mg, CT formulation, fasted | – | subjects with TEAEs | 17%
CCC1CNC(CC)CN(C(C(=O)[O-])c2ccc(C(=O)[O-])cc2)C(CC)CN(CC(=O)[O-])C(CC)CN1.[Mn+2] (stereo not drawn) | – | ICP-MS | BALB/c mice, intestine | intravenous, 0.05 mmol/kg, 30 min | baseline: injected dose | Mn uptake | 6.43 ± 5.61%
COc1cccc(OC)c1-c1cc(C(=O)NC2(C(=O)O)C3CC4CC(C3)CC2C4)nn1-c1ccc(C(=O)N(C)CCCN(C)C(=O)[C@H](CCCCNC(=O)[C@H](CC(C)C)NC(=O)C2OC2C(=O)O)NC(=O)CN2CCN(CC(=O)[O-])CCN(CC(=O)[O-])CCN(CC(=O)[O-])CC2)cc1C(C)C.[177Lu+3] (mixture of isomers) | – | – | mouse, HT-29 xenograft | 4 h post injection, biodistribution | baseline: tumour over bone uptake | tumour-to-bone ratio | 12.7
CC(=O)N([O-])CCCCCNC(=O)CCC(=O)N([O-])CCCCCNC(=O)CCC(=O)N([O-])CCCCCN.[89Zr+4] | – | – | mouse, heart | 24 h | – | tracer uptake | 0.02 %ID/g
CS(=O)(=O)c1ccc(-c2ccc(C3CCCCC3)cc2)cn1 | – | hepatocyte stability | cryopreserved human hepatocytes | 1 µM | – | hepatic clearance | 17 mL/min/kg
OC1(C(F)(F)F)CCN(c2nc(Nc3ccnc(C(F)(F)F)c3)nc(-c3cccc(C(F)(F)F)n3)n2)C1 (stereo not drawn) | – | – | Sprague-Dawley rat, both sexes, plasma | oral gavage, 10 mg/kg | – | AUC(0-24 h) | 9710 ± 1020 ng·h/mL
O=C(Nc1cnccc1-c1ccc([18F])nc1)c1ccnc(NC(=O)C2CC2)c1 | – | – | FVB/NJ mouse, both sexes, liver | intravenous, 5 min, with: tariquidar 15 mg/kg iv | – | SUV | 5.53
C=CC(=O)N1CCCC(n2c(=O)c3ncccc3n(Cc3ccc(Oc4ccccc4)cc3)c2=O)C1 (stereo not drawn) | – | – | male BALB/c mouse, plasma | intraperitoneal, 200 mg/kg, 4 h | – | concentration | 2300 ng/mL
C[C@]12C[C@H](c3ccc(S(C)(=O)=O)cc3)C3=C4CCC(=O)C=C4CC[C@H]3[C@@H]1CC[C@@]2(O)C(F)(F)C(F)(F)F | – | measured: compound (parent) | healthy human volunteers, pooled plasma | oral, 5 mg daily, day 28, 1.5 h | – | plasma concentration | 27.6 ng/mL
N#CCNC(=O)c1ccc(C2CCCCC2)cc1 | – | hepatocyte stability | cryopreserved mouse hepatocytes | 1 µM | – | hepatic clearance | 76 mL/min/kg
O=C(c1ccc(-c2ccccc2)cc1)N1CCCCC1 | – | metabolic stability | human, liver microsomes | 2 µM, 7 min, pH 7.4 | – | compound remaining | 100%
Cc1nn(-c2nc3c(F)cc(F)cc3s2)c(O)c1C(c1ccc(C(F)(F)F)cc1)c1c(C)nn(-c2nc3c(F)cc(F)cc3s2)c1O | – | – | ICR mouse, plasma | intraperitoneal, 10 mg/kg | – | AUC extrapolated observed | 9.59% and 14.1% and 4.07%
COc1cccc(OC)c1-c1cc(C(=O)NC2(C(=O)O)C3CC4CC(C3)CC2C4)nn1-c1ccc(C(=O)N(C)CCCN(C)CCCN(C)C(=O)[C@H](CCCCNC(=O)[C@H](CC(C)C)NC(=O)C2OC2C(=O)O)NC(=O)CN2CCN(CC(=O)[O-])CCN(CC(=O)[O-])CCN(CC(=O)[O-])CC2)cc1C(C)C.[177Lu+3] (mixture of isomers) | – | – | mouse, HT-29 xenograft | 72 h post injection, biodistribution | baseline: tumour over bone uptake | tumour-to-bone ratio | 38.8
C=CC(=O)Nc1cc(Nc2nccc(-c3cn(C)c4ccccc34)n2)c(OC)cc1N(C)CCNC | – | storage stability | human plasma samples | 30 d, -80 °C, LLOQ level | baseline: nominal concentration | percentage recovery | 13.3%
O=C(Nc1ccc([C@H]2[C@@H](F)[C@@H](F)C[C@@H](F)[C@H]2F)cc1)C1CC1(F)F (stereo partly drawn) | – | liver microsome stability | mouse liver microsomes | 1 µM | – | hepatic clearance | 28 mL/min/kg
CC(C(=O)O)n1nc(Cn2cc3cc(OCC[18F])c(Cl)cc3n2)c2ccccc2c1=O (racemic) | – | – | rat, liver | 1 h | – | tracer uptake | 0.82 %ID/g

For quick reference, copied from above:
SMILES | tested on | test | system | conditions | scale | quantity | value
COc1cccc(OC)c1-c1cc(C(=O)NC2(C(=O)O)C3CC4CC(C3)CC2C4)nn1-c1ccc(C(=O)N(C)CCOCCN(C)C(=O)[C@H](CCCCNC(=O)[C@H](CC(C)C)NC(=O)C2OC2C(=O)O)NC(=O)CN2CCN(CC(=O)[O-])CCN(CC(=O)[O-])CCN(CC(=O)[O-])CC2)cc1C(C)C.[177Lu+3] (mixture of isomers) | – | – | mouse, HT-29 xenograft | 24 h post injection, biodistribution | baseline: tumour over bone uptake | tumour-to-bone ratio | 6.71
Cc1nn(-c2cccc(N)c2)c(=O)c2cnc(Nc3ccc(N4CCNCC4)cc3)nc12 | Death-associated protein kinase 3 (DAPK3, Homo sapiens, UniProt O43293) | SelectScreen kinase | – | – | – | IC50 | > 10 µM
O=C(c1ccc(C2CCCCC2)cc1)N1CCC(F)CC1 | – | hepatocyte stability | cryopreserved mouse hepatocytes | 1 µM | – | hepatic clearance | 78 mL/min/kg
CC(C)OC(=O)[C@H](CO)NCc1cc(Cl)c(OCc2cccc(-c3ccccc3)c2Br)cc1OCc1cccnc1 | – | – | hPD-L1 MC-38 tumour, humanised hPD-1 C57BL/6 mouse | oral, 10 mg/kg × 21, day 1, baseline | – | body weight | 19.7 ± 1 g
